Assay results of several laboratories.
Protocols differ between the studies behind these lines. Values joined by “and” are separate records of one study, mostly repeats; a detail may differ. Numbers after ± are the reported error. Converted amounts (≈) assume the structure as drawn.
Chain of UniProt Q8TDX7 (whole entry, looked up): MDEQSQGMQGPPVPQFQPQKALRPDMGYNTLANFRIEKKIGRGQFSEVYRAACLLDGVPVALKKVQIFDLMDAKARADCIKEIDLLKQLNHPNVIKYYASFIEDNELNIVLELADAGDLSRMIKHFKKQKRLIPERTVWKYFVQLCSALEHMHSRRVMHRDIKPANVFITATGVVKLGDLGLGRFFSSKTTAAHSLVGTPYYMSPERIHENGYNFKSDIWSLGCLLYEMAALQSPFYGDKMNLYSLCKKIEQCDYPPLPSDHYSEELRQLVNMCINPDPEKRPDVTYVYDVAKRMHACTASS
Chain of UniProt Q05513 (whole entry, looked up): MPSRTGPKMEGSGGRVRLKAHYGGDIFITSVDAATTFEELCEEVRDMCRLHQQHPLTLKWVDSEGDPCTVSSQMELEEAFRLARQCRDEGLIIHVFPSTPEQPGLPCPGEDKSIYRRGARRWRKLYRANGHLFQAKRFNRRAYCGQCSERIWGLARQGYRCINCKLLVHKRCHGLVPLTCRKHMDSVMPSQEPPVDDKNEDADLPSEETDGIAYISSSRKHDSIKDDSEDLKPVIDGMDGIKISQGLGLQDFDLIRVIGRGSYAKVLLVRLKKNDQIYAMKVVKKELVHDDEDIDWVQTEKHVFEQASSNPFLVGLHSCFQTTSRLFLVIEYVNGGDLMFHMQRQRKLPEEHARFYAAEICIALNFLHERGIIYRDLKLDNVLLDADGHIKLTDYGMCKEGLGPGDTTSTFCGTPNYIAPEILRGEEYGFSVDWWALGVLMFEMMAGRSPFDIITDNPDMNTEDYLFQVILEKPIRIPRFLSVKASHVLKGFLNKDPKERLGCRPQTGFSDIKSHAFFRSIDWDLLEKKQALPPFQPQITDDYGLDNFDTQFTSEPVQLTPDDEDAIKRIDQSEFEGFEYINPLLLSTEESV
Chain of UniProt Q16816 (whole entry, looked up): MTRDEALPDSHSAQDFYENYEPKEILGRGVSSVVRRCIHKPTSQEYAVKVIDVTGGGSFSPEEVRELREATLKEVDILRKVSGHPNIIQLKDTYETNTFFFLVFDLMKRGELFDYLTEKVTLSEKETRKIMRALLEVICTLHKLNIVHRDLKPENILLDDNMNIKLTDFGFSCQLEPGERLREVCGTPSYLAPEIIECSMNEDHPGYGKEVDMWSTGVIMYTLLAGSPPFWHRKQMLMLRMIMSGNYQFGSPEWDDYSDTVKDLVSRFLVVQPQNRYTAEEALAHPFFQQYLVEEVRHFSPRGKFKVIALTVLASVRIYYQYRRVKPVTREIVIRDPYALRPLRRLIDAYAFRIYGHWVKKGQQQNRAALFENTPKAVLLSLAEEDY
Chain of UniProt P48730 (whole entry, looked up): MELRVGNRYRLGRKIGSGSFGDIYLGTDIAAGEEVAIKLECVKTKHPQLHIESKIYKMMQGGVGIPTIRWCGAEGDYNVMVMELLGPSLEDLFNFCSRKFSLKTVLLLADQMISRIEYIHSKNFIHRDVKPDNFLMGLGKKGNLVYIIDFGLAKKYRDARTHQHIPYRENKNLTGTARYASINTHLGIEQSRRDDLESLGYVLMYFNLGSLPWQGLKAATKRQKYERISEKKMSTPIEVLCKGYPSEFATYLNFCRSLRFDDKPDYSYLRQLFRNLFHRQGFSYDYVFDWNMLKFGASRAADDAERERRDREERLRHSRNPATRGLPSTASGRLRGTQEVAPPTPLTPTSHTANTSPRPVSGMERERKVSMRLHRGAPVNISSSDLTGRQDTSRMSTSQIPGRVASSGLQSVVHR
Chain of UniProt P43403 (whole entry, looked up): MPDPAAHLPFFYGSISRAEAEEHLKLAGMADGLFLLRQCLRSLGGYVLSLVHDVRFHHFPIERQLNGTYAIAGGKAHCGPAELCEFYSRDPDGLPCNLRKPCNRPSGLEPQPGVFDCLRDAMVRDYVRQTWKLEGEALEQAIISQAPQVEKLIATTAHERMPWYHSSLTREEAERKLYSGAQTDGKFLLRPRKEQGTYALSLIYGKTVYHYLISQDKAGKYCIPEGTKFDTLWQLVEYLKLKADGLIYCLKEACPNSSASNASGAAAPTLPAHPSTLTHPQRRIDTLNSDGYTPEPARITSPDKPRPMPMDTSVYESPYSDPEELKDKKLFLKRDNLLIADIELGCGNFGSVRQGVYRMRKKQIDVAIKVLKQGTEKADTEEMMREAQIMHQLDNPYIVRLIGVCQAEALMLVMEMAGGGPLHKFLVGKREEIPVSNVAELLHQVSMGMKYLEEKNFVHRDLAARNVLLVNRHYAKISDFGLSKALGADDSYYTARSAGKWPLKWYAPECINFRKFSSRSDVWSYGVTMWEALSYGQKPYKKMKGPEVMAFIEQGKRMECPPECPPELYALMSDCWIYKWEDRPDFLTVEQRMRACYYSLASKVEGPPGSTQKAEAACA

SMILES | tested on | test | system | conditions | how to read | measurement | result
Nc1ccc(/C=C/C(=O)N2CCc3c(oc4c(-c5ccc(F)cc5)cc(-c5ccc(C(=O)N6CCC(F)(F)CC6)cn5)cc34)C2)cn1 | ZAP70 (Homo sapiens, UniProt P43403) | binding, competition with immobilised ligand | – | 1 µM | – | remaining binding | 96%
CC[C@H](C)[C@H](NC(=O)[C@H](CO)NC(=O)[C@H](Cc1ccc(O)cc1)NC(=O)[C@H](Cc1ccc(O)cc1)NC(=O)[C@H](CC(N)=O)NC(=O)CNC(=O)[C@H](CO)NC(=O)[C@H](Cc1ccc(O)cc1)NC(=O)[C@H](CO)NC(=O)[C@H](CO)NC(=O)[C@H](CC(N)=O)NC(=O)COCCOCCNC(=O)CN1CCN(CC(=O)O)CCN(CC(=O)O)CCN(CC(=O)O)CC1)C(=O)N[C@@H](CC(C)C)C(N)=O [copper-64 labelled] | – | dynamic PET | mouse, tamoxifen-induced PDAC, tumor | intravenous, 0.1 µg/mouse, 3.5 min | – | tumour uptake | 14.5 %ID/mL
C[n+]1ccc(Nc2ccc(O)cc2)c2ccc(Cl)cc21.[I-] | West Nile virus | viral replication, Rluc reporter replicon | Vero WNV replicon cells | 50 µM, 24 h | – | inhibition | 84.5 ± 5.4%
CC(C)CC(O)(CC(C)C)c1cn(C(=O)N2CCCC2)nn1 | mouse T-cells | SILAC proteomics, measured: FBXO7 | – | 1 nM, 6 h, unit not given | relative to: DMSO | protein level | 1.1
COc1ccccc1-c1n[nH]c2nc(NC3CCN(C(=O)Cc4ccc(F)cc4F)CC3)ncc12 | – | bead binding, competition bead pull-down, measured: LINJ.35.1490 | Leishmania donovani extract | 10 µM | relative to: vehicle | relative abundance | 1.1
CC(C)(C)C(=O)OCOP(=O)(OCOC(=O)C(C)(C)C)C1CCCN(O)C1=O (stereo not drawn) | CAKI-1 | – | – | – | – | TGI | > 100 µM
CSCC[C@H](NC(=O)[C@@H](NC(=O)[C@H](CCC(N)=O)NC(=O)[C@H](CO)NC(=O)[C@@H](N)C(C)C)[C@@H](C)O)C(=O)N[C@@H](CCCNC(=N)N)C(=O)N[C@@H](CCC(N)=O)C(=O)N[C@H](C(=O)N[C@@H](C)C(=O)N[C@H](C(=O)N1CCC[C@H]1C(=O)N[C@@H](CC(C)C)C(=O)N[C@@H](CC(C)C)C(=O)N[C@@H](Cc1c[nH]c2ccccc12)C(=O)N[C@@H](Cc1ccccc1)C(=O)N[C@@H](Cc1c[nH]c2ccccc12)C(=O)N[C@H](C(=O)NCC(=O)N[C@@H](CO)C(=O)N[C@@H](CC(C)C)C(=O)NCCOCCOCCOCCOCCOCCOCCOCCOCCOCCOCCOCCOCCC(=O)N[C@@H](CS)C(N)=O)[C@@H](C)O)C(C)C)[C@@H](C)O | HCC95 | phage binding | – | – | relative to: targeting over control phage | selectivity ratio | 1.6 ± 0.55
O=C1NC2(CC2)COc2ncc(F)cc2[C@H]2COCCN2c2ccn3ncc1c3n2 | – | – | Sprague-Dawley rat, male, serum | oral, 5 mg/kg/day, end of treatment, 4-week subacute toxicity | – | serum sodium | 145 ± 1 mmol/L
CN(CCO)CCO.O=C(O)C(Cl)Cl | Eclipta prostrata | – | – | 15 mg/mL, 21 days, post-emergence, greenhouse | – | herbicidal inhibition | -35%
CCCCCCCCCCCC(=O)C(C)C(=O)N1CCC[C@H]1C(=O)NC(C)(C)C(=O)NC(C)(C)C(=O)NC(C)(C)C(=O)N[C@](C)(CC)C(=O)NCCC(=O)N[C@@H](C)C(=O)N[C@](C)(CC)C(=O)N[C@@H](C)C(=O)N[C@@H](CC(C)C)C(=O)N[C@](C)(CC)C(=O)NCCC(=O)N[C@@H](C)C(=O)N[C@](C)(CC)C(=O)NCCC(=O)N[C@@H](C)C(=O)NC(C)(C)C(=O)NC(C)(C)C(=O)NC(C)(C)C(=O)N[C@@H](C)C(=O)N[C@@H](CC(=O)O)C(=O)O (stereo partly drawn) | β-1,3-glucan | pull-down, LC-MS | – | 1 h, pH 7.0, 30 °C, with: β-glucan 1 mg/mL | higher = less bound | unbound compound (MS peak area) | 712 a.u. and 927 a.u.
Nc1ncc(-c2cc(-c3cnn(CC(F)(F)F)c3)ncc2F)nc1C(=O)NC1CNCC(F)C1 (stereo not drawn) | ABL1(F317L)-phosphorylated | KINOMEscan competition binding | – | 1 µM | relative to: DMSO control | remaining binding | 100%
COc1ccccc1-c1n[nH]c2nc(N[C@H]3CC[C@H](NS(=O)(=O)CC(C)C)CC3)ncc12 | – | bead binding, competition bead pull-down, measured: LINJ.35.1240 | Leishmania donovani extract | 10 µM | relative to: vehicle | relative abundance | 1.01
CC(C)C[C@@H]1NC(=O)[C@@H](Cc2c[nH]c3ccccc23)NC(=O)[C@H](CCCNC(=N)N)NC(=O)[C@@H](CCC(=O)O)NC(=O)[C@H](CCC(N)=O)NC(=O)[C@@H](CCC(=O)O)NC(=O)[C@H](CCCNC(=N)N)NC(=O)[C@@H](Cc2c[nH]c3ccccc23)NC1=O | – | Luminex, measured: RANTES | LDLr-/- mice, Western diet, liver | dose not given, 4 weeks | – | cytokine level | 71 ± 61 pg/g tissue
CCCCSC(SCCCC)c1ccc(OCCNS(=O)(=O)c2ccc(F)cc2)c(OC)c1 | tobacco mosaic virus | inactivation activity | in vivo plant | – | – | EC50 | 48.1 ± 2 µg/mL (≈ 93.3 µM)
N=C(N)NCCC[C@@H]1NC(=O)[C@H](CCCCNC(=O)CCC(NC(=S)Nc2ccc(CC3CN(CC(=O)O)CCN(CC(=O)O)CCN(CC(=O)O)CCN3CC(=O)O)cc2)C(=O)NCCCC[C@@H]2NC(=O)[C@@H](Cc3ccc(O)cc3)NC(=O)[C@H](CC(=O)O)NC(=O)CNC(=O)[C@H](CCCNC(=N)N)NC2=O)NC(=O)[C@@H](Cc2ccc(O)cc2)NC(=O)[C@H](CC(=O)O)NC(=O)CNC1=O (stereo partly drawn) [scandium-44 labelled] | – | ex vivo γ-counting | female athymic nude mice, U-87 MG xenograft, brain | intravenous, 4 h, with: cRGD 50 mg/kg blocking | – | tissue uptake | 0.008 ± 0.002 %ID/g
CN1C(=O)C(C2C3=C(CC(C)(C)CC3=O)Oc3ccc(Cl)cc32)C(=O)N(C)C1=O (stereo not drawn) | 3T3-L1 preadipocytes | adipogenesis, Oil Red O staining | – | IC20, 14 days, single replicate | – | lipid content | 0.711 OD492
CC(C)[C@@H]1NC(=O)[C@@H]2CCCN2C(=O)[C@@H](C(C)C)NC(=O)[C@H]2CCCN2C(=O)[C@H](C(C)C)NC(=O)[C@@H]2CCCN2C(=O)[C@@H](C(C)C)NC(=O)[C@H]2CCCN2C(=O)[C@H](C(C)C)NC(=O)[C@@H]2CCCN2C(=O)[C@@H](C(C)C)NC(=O)[C@H]2CCCN2C1=O | – | – | sheep lipid bilayer | 10 µM, pH 7.4, 23 °C, with: 10 mM K+ vs Tl chloride | – | bi-ionic potential | -29 mV
CC(C)[C@H]1NC(=O)C[C@H]2/C=C/CCSSC[C@@H](NC1=O)C(=O)N[C@H](Cc1cccc3ccccc13)C(=O)NCC(=O)O2 | PRKCZ (Homo sapiens, UniProt Q05513) | enzyme activity, inhibitor | – | 10 µM | – | inhibition | 3.1%
Cc1nc2cccc(OCC(C)(C)C(=O)NC(C)C)c2c(N)c1C(=O)[O-].[Na+] | Salmonella typhimurium | – | TA100 | 0.80 mg per plate, without S9, preincubation | – | revertant colonies per plate | 131 ± 21
Cc1cc(C(=O)Nc2nc3cccc(C)c3n2[C@H]2CCCCN(C(=O)/C=C/CN(C)C)C2)ccn1 | Trypanosoma brucei | – | STIB795, mouse acute HAT model | oral, 2.5 mg/kg once daily for 4 days, day 6 | relative to: mice | survival | 16.7%
CCSC(SCC)c1ccc(OCCNS(=O)(=O)c2ccc(C)cc2)c(Cl)c1 | tobacco mosaic virus | curative activity | in vivo plant | – | – | EC50 | > 2500 µg/mL
CC(C)CC(C(=O)N1CC2(CC1C#N)C(=O)Nc1ccccc12)N(C)C(=O)c1cc2c(F)cc(F)c(F)c2[nH]1 (stereo not drawn) | Human coronavirus 229E | cytopathic effect | MRC5 | 210 pM | – | inhibition | 1%
O=C1NC(=O)c2c1c1cc(F)c[n+]3c1c1c2c2cc(O)ccc2[n]1[Ru-4]312([N]=C=S)[S+]3CC[S+]1CC[S+]2CC3 (stereo not drawn) | NEK7 (Homo sapiens, UniProt Q8TDX7) | enzyme activity | – | 100 nM, human enzyme, with: 10 µM ATP | relative to: untreated | remaining activity | 64%
Cc1cc(Oc2nc(N3CC[C@@H](c4ccncc4)C3)ncc2F)[nH]n1 | UMUC3 | cell proliferation | bladder cancer | – | – | IC50 | 22.9 µM
CS(C)(=O)=Nc1ccc(-c2ccc(-c3nc4cc(O[C@@H]5CO[C@H]6[C@@H]5OC[C@H]6O)[nH]c4cc3F)cc2)cc1 | CSNK1D (Homo sapiens, UniProt P48730) | enzyme activity, inhibitor | – | 10 µM | – | inhibition | 6%
CN(C)[C@H]1C[C@@]23CC[C@@]4(O2)C(=CC[C@]2(C)[C@@H](c5ccc6ccncc6c5)CC[C@H]24)C=C3[C@@H](O)[C@@H]1O | PHKG1 (Homo sapiens, UniProt Q16816) | probe labelling, inhibitor, KiNativ ATP probe MS | native lysate | 0.1 µM | – | inhibition | 8.9%
CCn1cnc2c(Oc3ccc(/C=C/C(=O)c4ccc(NS(=O)(=O)c5ccccc5C)cc4)cc3)ncnc21 | Tobacco mosaic virus | protective activity | plant in vivo | – | – | EC50 | 447.2 ± 2.1 µg/mL (≈ 829 µM)
